# Measured values from different studies.
# A part holds a random share of what one study measured.
# UniProt P37023, sequence (whole entry, looked up): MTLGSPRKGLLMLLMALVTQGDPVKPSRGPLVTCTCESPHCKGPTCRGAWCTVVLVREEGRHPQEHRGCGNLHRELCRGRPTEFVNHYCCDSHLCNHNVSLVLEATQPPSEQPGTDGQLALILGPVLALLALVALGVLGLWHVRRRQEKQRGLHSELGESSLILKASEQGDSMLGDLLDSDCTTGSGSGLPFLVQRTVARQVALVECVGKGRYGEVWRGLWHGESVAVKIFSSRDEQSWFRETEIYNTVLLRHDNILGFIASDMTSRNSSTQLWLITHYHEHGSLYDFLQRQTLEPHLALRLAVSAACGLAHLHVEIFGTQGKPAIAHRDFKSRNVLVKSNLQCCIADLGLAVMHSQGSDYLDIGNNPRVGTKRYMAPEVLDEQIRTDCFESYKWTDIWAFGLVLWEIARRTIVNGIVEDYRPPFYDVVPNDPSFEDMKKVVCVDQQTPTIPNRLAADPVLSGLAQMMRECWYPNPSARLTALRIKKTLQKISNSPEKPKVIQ
# UniProt Q14680, sequence (whole entry, looked up): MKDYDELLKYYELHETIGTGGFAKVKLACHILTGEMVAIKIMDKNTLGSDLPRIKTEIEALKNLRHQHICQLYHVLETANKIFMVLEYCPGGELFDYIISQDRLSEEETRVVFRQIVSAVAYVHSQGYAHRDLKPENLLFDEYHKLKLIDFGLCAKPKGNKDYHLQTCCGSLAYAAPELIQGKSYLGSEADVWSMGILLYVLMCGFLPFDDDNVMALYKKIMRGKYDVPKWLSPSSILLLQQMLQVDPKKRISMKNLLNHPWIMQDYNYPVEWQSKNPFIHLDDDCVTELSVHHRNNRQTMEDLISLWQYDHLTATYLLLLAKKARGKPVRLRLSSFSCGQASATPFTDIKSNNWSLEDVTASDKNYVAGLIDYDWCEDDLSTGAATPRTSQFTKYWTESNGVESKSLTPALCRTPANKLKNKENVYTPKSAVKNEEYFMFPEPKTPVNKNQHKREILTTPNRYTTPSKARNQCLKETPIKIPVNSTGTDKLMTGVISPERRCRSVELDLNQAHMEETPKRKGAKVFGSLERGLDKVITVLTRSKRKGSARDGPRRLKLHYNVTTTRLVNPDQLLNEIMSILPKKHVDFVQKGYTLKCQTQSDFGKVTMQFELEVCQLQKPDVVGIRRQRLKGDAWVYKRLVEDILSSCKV
# UniProt Q9P286, sequence (whole entry, looked up): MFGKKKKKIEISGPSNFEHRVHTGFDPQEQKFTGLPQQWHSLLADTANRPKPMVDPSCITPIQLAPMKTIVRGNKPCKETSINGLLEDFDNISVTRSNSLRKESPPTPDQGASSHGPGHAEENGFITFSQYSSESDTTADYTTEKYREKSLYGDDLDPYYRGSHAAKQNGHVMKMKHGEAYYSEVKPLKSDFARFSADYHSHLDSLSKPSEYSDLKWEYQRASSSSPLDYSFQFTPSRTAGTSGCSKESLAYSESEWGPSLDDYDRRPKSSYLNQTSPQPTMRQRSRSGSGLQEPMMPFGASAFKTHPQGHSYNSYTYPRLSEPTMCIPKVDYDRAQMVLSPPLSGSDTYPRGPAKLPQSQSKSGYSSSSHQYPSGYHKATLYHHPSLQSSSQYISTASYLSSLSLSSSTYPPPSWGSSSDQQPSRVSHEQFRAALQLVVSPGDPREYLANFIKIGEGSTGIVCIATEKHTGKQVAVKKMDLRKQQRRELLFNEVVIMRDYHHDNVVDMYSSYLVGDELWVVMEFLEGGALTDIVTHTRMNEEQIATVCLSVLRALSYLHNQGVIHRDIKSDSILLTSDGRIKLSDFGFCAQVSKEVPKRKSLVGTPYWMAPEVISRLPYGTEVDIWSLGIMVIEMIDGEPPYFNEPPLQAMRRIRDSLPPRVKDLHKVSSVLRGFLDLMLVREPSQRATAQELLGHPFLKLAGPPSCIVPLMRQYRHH
# UniProt Q9P0L2, sequence (whole entry, looked up): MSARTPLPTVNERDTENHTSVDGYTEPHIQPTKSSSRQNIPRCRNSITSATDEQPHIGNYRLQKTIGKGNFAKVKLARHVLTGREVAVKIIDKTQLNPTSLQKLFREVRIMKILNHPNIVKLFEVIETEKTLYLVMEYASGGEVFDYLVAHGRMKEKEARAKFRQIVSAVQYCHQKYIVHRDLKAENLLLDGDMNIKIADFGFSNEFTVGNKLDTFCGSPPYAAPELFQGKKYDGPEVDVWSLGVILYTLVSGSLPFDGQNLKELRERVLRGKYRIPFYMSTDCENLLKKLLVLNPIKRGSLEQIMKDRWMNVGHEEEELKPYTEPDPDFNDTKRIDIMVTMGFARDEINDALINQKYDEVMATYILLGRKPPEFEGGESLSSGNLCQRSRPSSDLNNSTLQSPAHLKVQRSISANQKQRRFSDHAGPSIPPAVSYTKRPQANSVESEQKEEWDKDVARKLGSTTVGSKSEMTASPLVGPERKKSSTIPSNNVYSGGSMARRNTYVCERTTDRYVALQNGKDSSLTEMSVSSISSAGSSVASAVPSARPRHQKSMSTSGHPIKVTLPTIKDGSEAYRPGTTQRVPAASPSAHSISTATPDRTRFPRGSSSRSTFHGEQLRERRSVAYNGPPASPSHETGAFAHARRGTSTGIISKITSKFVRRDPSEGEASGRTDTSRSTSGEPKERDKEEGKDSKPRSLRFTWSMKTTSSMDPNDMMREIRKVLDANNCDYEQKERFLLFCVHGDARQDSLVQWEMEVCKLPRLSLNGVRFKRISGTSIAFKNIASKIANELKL
# UniProt P07947, sequence (whole entry, looked up): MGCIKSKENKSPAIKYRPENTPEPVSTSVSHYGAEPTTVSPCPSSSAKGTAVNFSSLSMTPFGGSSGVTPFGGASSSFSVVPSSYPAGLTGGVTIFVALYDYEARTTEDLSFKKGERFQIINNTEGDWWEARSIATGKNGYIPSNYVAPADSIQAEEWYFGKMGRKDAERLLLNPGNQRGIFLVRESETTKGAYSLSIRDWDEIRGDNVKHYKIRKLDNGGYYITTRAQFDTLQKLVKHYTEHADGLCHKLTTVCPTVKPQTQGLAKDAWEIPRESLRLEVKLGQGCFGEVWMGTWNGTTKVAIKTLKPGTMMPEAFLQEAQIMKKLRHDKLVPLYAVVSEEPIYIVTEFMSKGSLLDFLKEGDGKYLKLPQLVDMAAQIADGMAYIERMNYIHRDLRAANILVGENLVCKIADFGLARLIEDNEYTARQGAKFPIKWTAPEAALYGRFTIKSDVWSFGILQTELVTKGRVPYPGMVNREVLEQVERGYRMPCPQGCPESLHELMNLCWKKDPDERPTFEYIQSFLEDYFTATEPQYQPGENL
# UniProt P11309, sequence (whole entry, looked up): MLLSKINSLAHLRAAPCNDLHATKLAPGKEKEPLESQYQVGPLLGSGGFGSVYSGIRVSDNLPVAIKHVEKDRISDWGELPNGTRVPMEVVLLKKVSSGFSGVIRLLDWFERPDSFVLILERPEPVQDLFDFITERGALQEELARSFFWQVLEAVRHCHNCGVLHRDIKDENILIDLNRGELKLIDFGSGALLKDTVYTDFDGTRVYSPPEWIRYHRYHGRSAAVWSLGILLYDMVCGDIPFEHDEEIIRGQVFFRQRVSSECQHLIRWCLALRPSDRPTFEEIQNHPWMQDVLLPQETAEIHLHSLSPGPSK

# Set 1
# Cell line: HEK-293T
# Observed: pseudovirus infection
# Method: FDA-approved drug library counter-screen
# Organism: VSV pseudotyped with VSV-G
# Concentration: 10 µM
# Time: 16 h
# Reference: vehicle-treated
SMILES,GFP-positive cells
Cc1ccc(-c2cc(C(F)(F)F)nn2-c2ccc(S(N)(=O)=O)cc2)cc1,116%
CC(=O)[C@H]1CC[C@H]2[C@@H]3CCC4=CC(=O)CC[C@]4(C)[C@H]3CC[C@]12C,99.6%
CC(=O)O[C@H]1Cc2ccccc2N(C(N)=O)c2ccccc21,103%
OC[C@H]1O[C@@H](O[C@@H]2[C@@H](CO)OC(O)(CO)[C@H]2O)[C@H](O)[C@@H](O)[C@H]1O (mixture of isomers),94.2%
CCCc1nn(C)c2c(=O)[nH]c(-c3cc(S(=O)(=O)N4CCN(C)CC4)ccc3OCC)nc12,103%
N=C(N)NC(=O)Cc1c(Cl)cccc1Cl,141%
C[C@H]1CNCCc2ccc(Cl)cc21,128%
COc1c(C)c2c(c(O)c1C/C=C(\C)CCC(=O)O)C(=O)OC2,1.73%
COc1ccc(C(=O)c2ccccc2)c(O)c1,73.7%
CCOC(=O)c1ncn2c1CN(C)C(=O)c1cc(F)ccc1-2,104%
CC1COc2c(N3CCN(C)CC3)c(F)cc3c(=O)c(C(=O)O)cn1c23 (centres unmarked),95.8%
Cc1cn([C@H]2C=C[C@@H](CO)O2)c(=O)[nH]c1=O,97%
CCN(CC)C(=O)/C(C#N)=C/c1cc(O)c(O)c([N+](=O)[O-])c1,94.5%
CNCC[C@@H](Oc1ccccc1C)c1ccccc1,101%
NC(=O)c1ncn([C@@H]2O[C@H](CO)[C@@H](O)[C@H]2O)n1,74.7%
O=c1oc2ccccc2c(O)c1Cc1c(O)c2ccccc2oc1=O,65.8%
COc1cc(Nc2c(C#N)cnc3cc(OCCCN4CCN(C)CC4)c(OC)cc23)c(Cl)cc1Cl,147%
CN1CCN2c3ncccc3Cc3ccccc3C2C1 (centres unmarked),105%
CCCCC(CC)COC(=O)C(C#N)=C(c1ccccc1)c1ccccc1 (centres unmarked),114%
CC(C)OC(=O)CCC/C=C\C[C@@H]1[C@@H](CC[C@@H](O)CCc2ccccc2)[C@H](O)C[C@@H]1O,136%
Oc1ccc(OCc2ccccc2)cc1,69.9%
Cc1cnc(NC(=O)C2=C(O)c3ccccc3S(=O)(=O)N2C)s1,91.3%
Cc1cn([C@H]2C[C@H](N=[N+]=[N-])[C@@H](CO)O2)c(=O)[nH]c1=O,96.9%
CCc1cc2c(cc1N1CCC(N3CCOCC3)CC1)C(C)(C)c1[nH]c3cc(C#N)ccc3c1C2=O,116%
CC1Cc2ccccc2N1NC(=O)c1ccc(Cl)c(S(N)(=O)=O)c1 (centres unmarked),96.1%

# Set 2
# SMILES: CNC(=O)c1ccc(-c2cnn3ccc(C(=O)N(C)c4ccc(Cl)c(C(=O)OC)c4)cc23)cc1
# Sample: plasma
# Route: oral
system,conditions,AUC
beagle dog,"1000 mg/kg/day, multiple doses",634 ng·h/mL
"Wistar rat, both sexes","50 mg/kg/day, 2 weeks, GLP toxicology study",2.77 ng·h/mL
beagle dog,"250 mg/kg/day, multiple doses",248 ng·h/mL
beagle dog,"50 mg/kg/day, multiple doses",120 ng·h/mL
"Wistar rat, both sexes","1000 mg/kg/day, 2 weeks, GLP toxicology study",18.6 ng·h/mL
beagle dog,"15 mg/kg/day, multiple doses",67.8 ng·h/mL
"Wistar rat, both sexes","250 mg/kg/day, 2 weeks, GLP toxicology study",10.3 ng·h/mL
bovine,20 mg/kg/day,70.5 ng·h/mL
female C57BL/6 mouse,10 mg/kg,0.019 µM·h

# Set 3
# SMILES: COC[C@H]1OC(=O)c2coc3c2[C@@]1(C)C1=C(C3=O)[C@@H]2CCC(=O)[C@@]2(C)C[C@H]1OC(C)=O
# Observed: enzyme activity
# Action: inhibitor
# Concentration: 0.5 µM
# Reference: control
target,remaining activity [%]
"PAK5 (Homo sapiens, UniProt Q9P286)",95.8
"MELK (Homo sapiens, UniProt Q14680)",92.4
"PIM1 (Homo sapiens, UniProt P11309)",72.4
"ACVRL1 (Homo sapiens, UniProt P37023)",98.8
"MARK1 (Homo sapiens, UniProt Q9P0L2)",98.1
"DYRK1A (Homo sapiens, UniProt Q13627)",97.3
"YES1 (Homo sapiens, UniProt P07947)",98.3
"ERBB2 (Homo sapiens, UniProt P04626)",94.5

# Set 4
# Organism: Sarcocystis neurona
# Observed: parasite growth
# Concentration: 10 µM
Compound,inhibition [%]
CC(C)N(CCC(C(N)=O)(c1ccccc1)c1ccccn1)C(C)C (centres unmarked),-26.5
O=C1CC[C@@]2(O)[C@H]3Cc4ccc(O)c5c4[C@@]2(CCN3CC2CC2)[C@H]1O5,-33.7
Oc1ccc2c3c1O[C@H]1[C@@H](O)CC[C@@]4(O)[C@@H](C2)N(CC2CCC2)CC[C@]314,-20.3
CC(C)CC(N(C)C)C1(c2ccc(Cl)cc2)CCC1.Cl (centres unmarked),-20.6
CN1CC[C@@]23CCCC[C@@H]2[C@@H]1Cc1ccc(O)cc13.O=C(O)C(O)C(O)C(=O)O,-24.6
c1ccc2c3c([nH]c2c1)CNCC3,-28.7
CCCCC/C=C\C/C=C\C/C=C\C/C=C\CCCC(=O)Nc1ccc(O)cc1,4.5
CNC1=Nc2ccc(Cl)cc2C(c2ccccc2)=[N+]([O-])C1,-20.1

# A few entries again (set 1):
SMILES,GFP-positive cells
CNCC[C@@H](Oc1ccccc1C)c1ccccc1,101%
NC(=O)c1ncn([C@@H]2O[C@H](CO)[C@@H](O)[C@H]2O)n1,74.7%
O=c1oc2ccccc2c(O)c1Cc1c(O)c2ccccc2oc1=O,65.8%
COc1cc(Nc2c(C#N)cnc3cc(OCCCN4CCN(C)CC4)c(OC)cc23)c(Cl)cc1Cl,147%
CN1CCN2c3ncccc3Cc3ccccc3C2C1 (centres unmarked),105%
